Experimental data pooled from the literature.
Several values in a cell are separate wells, animals, samples, runs or records. ± gives the spread as reported.
Chain of UniProt O60285 (whole entry, looked up): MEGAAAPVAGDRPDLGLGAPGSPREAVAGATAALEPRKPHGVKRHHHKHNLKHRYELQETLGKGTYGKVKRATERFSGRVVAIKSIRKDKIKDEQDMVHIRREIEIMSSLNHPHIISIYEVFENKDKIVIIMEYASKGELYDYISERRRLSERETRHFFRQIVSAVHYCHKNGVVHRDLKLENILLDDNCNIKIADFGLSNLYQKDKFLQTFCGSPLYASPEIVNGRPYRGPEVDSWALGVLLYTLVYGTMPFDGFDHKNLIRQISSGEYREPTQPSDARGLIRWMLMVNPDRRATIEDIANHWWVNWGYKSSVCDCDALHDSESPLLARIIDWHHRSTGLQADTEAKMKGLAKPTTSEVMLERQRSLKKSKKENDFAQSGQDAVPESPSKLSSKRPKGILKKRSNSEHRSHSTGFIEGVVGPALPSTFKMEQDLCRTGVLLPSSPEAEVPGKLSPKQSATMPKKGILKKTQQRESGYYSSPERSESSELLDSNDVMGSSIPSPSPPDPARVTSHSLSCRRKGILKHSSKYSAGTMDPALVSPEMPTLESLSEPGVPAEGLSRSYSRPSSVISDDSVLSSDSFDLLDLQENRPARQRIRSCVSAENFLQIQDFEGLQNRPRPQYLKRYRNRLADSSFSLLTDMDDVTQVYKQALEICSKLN

Cn1cnc([N+](=O)[O-])c1Sc1ccccc1C(=O)NCCC(N)=O — remaining compound (LC-MS/MS; CD-1 mouse, CD-1 mouse blood; 1 µM, 90 min): 10.1%
O=C1c2sc(-c3ccc(N4CCC(F)C4)nc3F)nc2CCN1c1cccnc1 (centres unmarked) — concentration (CD1 mouse, plasma; i.v., dose not given, 1.25 h): 16.3 ng/mL and 11.4 ng/mL and 13.5 ng/mL
O=C(N/N=C/c1ccc2c(ccc[n+]2Cc2ccccc2)c1)c1cccc(C(=O)N/N=C/c2ccc3c(ccc[n+]3Cc3ccccc3)c2)c1 — ΔTm (hp2 hairpin duplex DNA; FRET melting; 1 µM, with: ds26 10 µM): 1.1 ± 0.1 °C
CC[C@H](C)[C@H](NC(=O)[C@H](CCCNC(=N)N)NC(=O)[C@H](Cc1c[nH]cn1)NC(=O)[C@@H](N)[C@@H](C)O)C(=O)N[C@@H](CC(C)C)C(=O)N[C@@H](CCCNC(=N)N)C(=O)N[C@@H](CCCNC(=N)N)C(=O)N[C@@H](CC(C)C)C(=O)N[C@@H](Cc1ccccc1)C(=O)N[C@@H](CC(N)=O)C(=O)N[C@@H](CC(C)C)C(=O)N[C@@H](CS)C(N)=O — brain concentration (male C57BL/6J mouse; intraperitoneal, 10 mg/kg, 1 min): 0.0017 µM
OCC1OC(n2cnc3c(NCc4ccc(Br)s4)ncnc32)C(O)C1O (centres unmarked) — fraction unbound (equilibrium dialysis; dog plasma; 5 µg/mL, 4 h, pH 7.4): 0.119
CC(C)Cc1ccc(C(C)C(=O)N[C@@H](CCCCNC(=O)CCOCCOCCOCCOCCOCCOCCNC(=O)CN2CCN(CC(=O)[O-])CCN(CC(=O)[O-])CCN(CC(=O)[O-])CC2)C(=O)Nc2cccc3c(C(=O)NCC(=O)N4CC(F)(F)C[C@H]4C#N)ccnc23)cc1.[177Lu+3] (some centres unmarked) — radiochemical stability (human serum; 24 h, 37 °C, 177Lu-labelled): 96.3 ± 1%
C=C(NC(=O)c1csc(-c2nc3c(cc2O)-c2nc(cs2)C(=O)NC(C(C)O)C(=O)NC(=C(C)OC)c2nc(cs2)C(=O)NC2c4nc(cs4)C(=O)NC(COC(=O)c4c5c6c(cccc6n4O)COC(=O)C(OC4CC(C)(O)C(N(C)C)C(C)O4)C2OC5)c2nc-3cs2)n1)C(N)=O (centres unmarked) — volume of distribution (cynomolgus monkey, male, plasma; intravenous infusion, 3 mg/kg single dose): 1.15 L/kg
CCCCN1C(=O)c2cccc3c(NCCN4CCOCC4)ccc(c23)C1=O — Stokes shift (ethyl acetate): 86 nm
[123I]c1ccc2nc(-c3ccc(-n4ccnn4)nc3)cn2c1 — tracer uptake (male Wistar rat, blood; intravenous, 4 MBq, 5 min): 0.4 %ID/g
O=C1c2sc(-c3ccc(N4CCC(CO)CC4)nc3F)nc2CCN1c1cccnc1 — parent fraction (HPLC; rhesus monkey, plasma; intravenous, 30.02 min): 0.29
Cc1cc(F)ccc1-c1cc(N2C[C@H]3COC(O)CN3C[C@H]2CO)ncc1N(C)C(=O)C(C)(C)c1cc(C(F)(F)F)cc(C(F)(F)F)c1 (some centres unmarked) — fraction unbound in microsomes (human liver microsomes): 0.591
O=C(Nc1cnccc1-c1ccc([18F])cc1)c1ccnc(NC(=O)C2CC2)c1 — SUV (ex vivo gamma counting; GSK-3β transgenic mice, late-stage, small intestine; intravenous, 1.26 MBq/animal, 120 min, mean, no P-gp inhibitor): 2.16
CC(C)(O)c1ncc([S@](N)(=O)=NC(=O)Nc2c3c(cc4c2CCC4)CCC3)s1 — subjects with TEAEs (measured: vascular disorders; healthy human; oral, 100 mg, CS formulation, fasted): 40%
C/C(N)=N/C(=N\S(=O)(=O)c1ccc(C(F)(F)F)cc1)N1C[C@H](c2ccccc2)C(c2ccc(Cl)cc2)=N1 — Tmax (Beagle dog, plasma; oral, 6 mg/kg): 3 h
C=CC(=O)Nc1cc(Nc2nccc(-c3c[nH]c4ccccc34)n2)c(OC)cc1N(C)CCN(C)C — recovery (storage stability; human dried blood spots; 5 h, -80 °C, LLOQ level): 89.9%
CCCCN1C(=O)c2cccc3c(NCCCN4CCOCC4)ccc(c23)C1=O — fluorescence lifetime (chloroform): 8.7 ns
O=C(Nc1cnccc1-c1ccc([18F])nc1)c1ccnc(NC(=O)C2CC2)c1 — mean SUV (ex vivo gamma counting; GSK-3β transgenic mice, early-stage, left kidney; intravenous, 120 min, with: tariquidar 15 mg/kg iv): 0.372
COc1cc2c(cc1OC)[C@H]1C[C@@H](O)[C@H](CC(C)C)CN1CC2 — MRT(0-t) (measured: non-deuterated analyte; healthy human male, plasma; oral, 25 mg, geometric mean, [14C]-tetrabenazine dosed): 7.14 h
COc1ccc2c(c1)CN(C(=O)CCN1CCC(Cc3ccccc3)CC1)CC[S+]2[O-] (centres unmarked) — fu (dog plasma; 250 ng/mL): 0.299
CCCN(C)c1cc(C(F)(F)F)nc(SCCC(=O)NCc2ccco2)n1 — plasma AST (Wistar rat, plasma; intraperitoneal, 25 mg/kg, 2 h post-dose; reference: vehicle control): no effect
CCCCCCCOc1ccc(CC[C@](N)(CO)COP(=O)(O)O)cc1C(F)(F)F — renal clearance (healthy men, urine and plasma; oral, 0.75 mg once daily, day 21, fed state): 0.0255 mL/min
CC[C@H](C)[C@@H]1NC(=O)[C@H](Cc2ccc(O)cc2)NC(=O)CCCSC[C@@H](C(=O)N(CC(=O)N[C@@H](CC(C)C)C(=O)NCC(N)=O)Cc2ccc(F)cc2)NC(=O)[C@H](CC(N)=O)NC(=O)[C@H](CCC(N)=O)NC1=O — terminal half-life (human, plasma; intranasal, 200 µg every 3 h, 11 doses, after second dose): 0.46 h
COCC1CN(C2CCN(c3cc(OC)c(Nc4ncc(Br)c(Nc5ccc6c(c5P(C)(C)=O)OCCO6)n4)cc3C)CC2)C1 — adverse events (first-in-human trial; human; oral, 30 mg once daily; treatment-related leading to dose reduction): 0%
CN(O)C(=O)CCC(=O)NCCCN(CCCCN(CCCNC(=O)CCC(=O)N(C)O)C(=O)CCC(=O)N(C)O)C(=O)CCC(=O)N(C)O.[89Zr] — intact complex (radio-TLC; aqueous buffer; 3 d, pH 8.5, 37 °C, 89Zr-labelled complex, with: DTPA 100-fold excess): 99.4 ± 0.6%
CN1CCC[C@]1(C)/C=C/S(=O)(=O)NC(=O)Nc1c2c(cc3c1CCC3)CCC2 — subjects with adverse event (measured: Constipation, possibly related; human; oral, 12.5 mg twice daily, 14 days, multiple ascending dose): 0%
N#C[C@@H]1CC(F)(F)CN1C(=O)CNC(=O)c1ccnc2c(NC(=O)C(CCCCNC(=O)CCOCCOCCOCCOCCOCCOCCNC(=O)CN3CCN(CC(=O)[O-])CCN(CC(=O)[O-])CCN(CC(=O)[O-])CC3)NC(=O)CCCc3ccc(I)cc3)cccc12.[68Ga+3] (some centres unmarked) — radiochemical stability (human serum; 30 min, 37 °C, 68Ga-labelled): 99.05 ± 0.2%
Cc1nn(-c2nc3c(F)cc(F)cc3s2)c(O)c1C(c1ccc(C(F)(F)F)cc1)c1c(C)nn(-c2nc3c(F)cc(F)cc3s2)c1O — Vss observed (ICR mouse, plasma; intravenous, 5 mg/kg): 0.758 L/kg and 0.563 L/kg and 1.03 L/kg
O=C([O-])CN1CCN(CC(=O)[O-])CCN(CC(CCCc2ccccc2[N+](=O)[O-])N(CC(=O)[O-])CC(=O)[O-])CC1.[90Y+3] (centres unmarked) — intact radiolabelled complex (TLC; human serum; 336 h, pH 7, 37 °C): 99.9 ± 0.2%
CC(C)C[C@@H](NC(=O)[C@H](NC(=O)[C@H]1CCCN1)[C@H](C)O)C(=O)N[C@H](Cc1c[nH]cn1)C(=O)N[C@@H](C(=O)N[C@H](Cc1c[nH]cn1)C(=O)N[C@H](CC(N)=O)C(=O)N[C@H](CCCNC(=N)N)C(=O)N[C@H](CCCNC(=N)N)C(=O)N[C@H](CCCNC(=N)N)C(=O)N[C@H](CCCNC(=N)N)C(=O)N[C@H](CCCNC(=N)N)C(N)=O)[C@H](C)O — glucose (Beagle dog, blood; oral, 30 mg/kg daily, 3 months): 5.1 mmol/L
Cc1nc(N)nc2c1C(=O)N[C@@H](c1ccc(F)cc1-c1cccc(O[11CH3])n1)C2 — SUV (ex vivo biodistribution; mice, U87 subcutaneous xenograft, blood; 60 min post-injection, baseline, vehicle pre-treatment): 0.6 ± 0.1
O=C(N/N=C/c1ccc(C[n+]2ccccc2)cc1)c1cccc(C(=O)N/N=C/c2ccc(C[n+]3ccccc3)cc2)n1 — ΔTm (hp2 hairpin duplex DNA; FRET melting; 1 µM): 0.8 ± 0.2 °C
Cc1nn(-c2cccc(N)c2)c(=O)c2cnc(Nc3ccc(N4CCNCC4)cc3)nc12 — IC50 (NUAK family SNF1-like kinase 1 (NUAK1, Homo sapiens, UniProt O60285); enzyme activity, inhibitor): 3.25 µM
COc1cccc(OC)c1-c1cc(C(=O)NC2(C(=O)O)C3CC4CC(C3)CC2C4)nn1-c1ccc(C(=O)N(C)CCOCCOCCN(C)C(=O)[C@H](CCCCNC(=O)[C@H](CC(C)C)NC(=O)C2OC2C(=O)O)NC(=O)CN2CCN(CC(=O)[O-])CCN(CC(=O)[O-])CCN(CC(=O)[O-])CC2)cc1C(C)C.[177Lu+3] (mixture of isomers) — tumour-to-stomach ratio (mouse HT-29 xenograft; 72 h, biodistribution; reference: tumour over stomach): 58.5
CCCCN1C(=O)c2cccc3c(NCCCCCN4CCOCC4)ccc(c23)C1=O — Stokes shift (ethyl acetate): 80 nm
Cc1ccccc1Nc1ncnc2[nH]c(/C=C/c3ccccc3)nc12 — purity (HPLC; solution, dark; before light exposure): 99.1%
CN([O-])C(=O)CN1CCNCCN(CC(=O)N(C)[O-])CC1.[89Zr+4] — tracer uptake (mouse, lung; intravenous, 4 h): 0.18 %ID/g
COc1ccc(C(N)=O)cn1 — plasma concentration (Han Wistar rats, male, plasma; oral, 30 mg/kg, 0.50 h): 76.7 µM
O=C(O)c1c(O)cc(O[C@@H]2O[C@H](CO)[C@@H](O)[C@H](O)[C@H]2O)cc1/C=C/c1ccccc1 — serum AST (FVB mouse; 40 mg/kg, 2 weeks; reference: vehicle): no effect
C=CC(=O)Nc1cccc(Cn2ncc3cnc(Nc4cnn(CCOC)c4)nc32)c1 — remaining compound (mouse, CD-1, both sexes, whole blood; 5 µM, 30 min): 71.2%
CCCCN1C(=O)c2cccc3c(NCCCCCCCCCCN4CCOCC4)ccc(c23)C1=O — Stokes shift (DMF): 81 nm
N#C[C@@H]1CC(F)(F)CN1C(=O)CNC(=O)c1ccnc2c(NC(=O)CCOCCOCCOCCOCCOCCOCCNC(=O)C(CCCCNC(=O)CN3CCN(CC(=O)[O-])CCN(CC(=O)[O-])CCN(CC(=O)[O-])CC3)NC(=O)CCCc3ccc(I)cc3)cccc12.[68Ga+3] (some centres unmarked) — radiochemical stability (human serum; 30 min, 37 °C, 68Ga-labelled): 99.32 ± 0.2%
Cc1cc(-c2ccc(C(=O)[C@@H]3CCCC[C@H]3C(=O)Nc3cnn4c3C(=O)NCC4)cc2)[nH]n1 — cumulative radioactivity recovery (human, urine; oral, 200 mg, 0-216 h; reference: dose): 6.33% and 6.8% and 5.62% and 6.73% and 4.93% and 4.97%
COc1ccc(/C=C/c2nc3c(Cl)ncnc3[nH]2)cc1OC — purity (HPLC; solution, dark; before light exposure): 99.4%
CCCCN1C(=O)c2cccc3c(NCCCCCCCCN4CCOCC4)ccc(c23)C1=O — Stokes shift (acetonitrile): 94 nm
C=CC(=O)Nc1cc(Nc2nccc(-c3cn(C)c4ccccc34)n2)c(OC)cc1N(C)CCNC — recovery (storage stability; human dried blood spots; 5 h, on ice, low QC level): 99.7%
N#C[C@@H]1CC(F)(F)CN1C(=O)CNC(=O)c1ccnc2c(NC(=O)C(N)CCCCNC(=O)CCOCCOCCOCCOCCOCCOCCNC(=O)CN3CCN(CC(=O)[O-])CCN(CC(=O)[O-])CCN(CC(=O)[O-])CC3)cccc12.[68Ga+3] (some centres unmarked) — radiochemical stability (human serum; 60 min, 37 °C, 68Ga-labelled): 99.08 ± 0.2%
O=C(C1CCN(c2nnnn2-c2ccccc2)CC1)N1CCCc2ccccc21 — C0 (male Sprague-Dawley rat, plasma; intravenous, 1 mg/kg): 2070 ng/mL

Some of these lines once more:
CC[C@H](C)[C@H](NC(=O)[C@H](CCCNC(=N)N)NC(=O)[C@H](Cc1c[nH]cn1)NC(=O)[C@@H](N)[C@@H](C)O)C(=O)N[C@@H](CC(C)C)C(=O)N[C@@H](CCCNC(=N)N)C(=O)N[C@@H](CCCNC(=N)N)C(=O)N[C@@H](CC(C)C)C(=O)N[C@@H](Cc1ccccc1)C(=O)N[C@@H](CC(N)=O)C(=O)N[C@@H](CC(C)C)C(=O)N[C@@H](CS)C(N)=O — brain concentration (male C57BL/6J mouse; intraperitoneal, 10 mg/kg, 1 min): 0.0017 µM
OCC1OC(n2cnc3c(NCc4ccc(Br)s4)ncnc32)C(O)C1O (centres unmarked) — fraction unbound (equilibrium dialysis; dog plasma; 5 µg/mL, 4 h, pH 7.4): 0.119
CC(C)Cc1ccc(C(C)C(=O)N[C@@H](CCCCNC(=O)CCOCCOCCOCCOCCOCCOCCNC(=O)CN2CCN(CC(=O)[O-])CCN(CC(=O)[O-])CCN(CC(=O)[O-])CC2)C(=O)Nc2cccc3c(C(=O)NCC(=O)N4CC(F)(F)C[C@H]4C#N)ccnc23)cc1.[177Lu+3] (some centres unmarked) — radiochemical stability (human serum; 24 h, 37 °C, 177Lu-labelled): 96.3 ± 1%
C=C(NC(=O)c1csc(-c2nc3c(cc2O)-c2nc(cs2)C(=O)NC(C(C)O)C(=O)NC(=C(C)OC)c2nc(cs2)C(=O)NC2c4nc(cs4)C(=O)NC(COC(=O)c4c5c6c(cccc6n4O)COC(=O)C(OC4CC(C)(O)C(N(C)C)C(C)O4)C2OC5)c2nc-3cs2)n1)C(N)=O (centres unmarked) — volume of distribution (cynomolgus monkey, male, plasma; intravenous infusion, 3 mg/kg single dose): 1.15 L/kg
CCCCN1C(=O)c2cccc3c(NCCN4CCOCC4)ccc(c23)C1=O — Stokes shift (ethyl acetate): 86 nm
[123I]c1ccc2nc(-c3ccc(-n4ccnn4)nc3)cn2c1 — tracer uptake (male Wistar rat, blood; intravenous, 4 MBq, 5 min): 0.4 %ID/g
O=C1c2sc(-c3ccc(N4CCC(CO)CC4)nc3F)nc2CCN1c1cccnc1 — parent fraction (HPLC; rhesus monkey, plasma; intravenous, 30.02 min): 0.29
Cc1cc(F)ccc1-c1cc(N2C[C@H]3COC(O)CN3C[C@H]2CO)ncc1N(C)C(=O)C(C)(C)c1cc(C(F)(F)F)cc(C(F)(F)F)c1 (some centres unmarked) — fraction unbound in microsomes (human liver microsomes): 0.591
